# Experimental data from different studies.
# Numbered parts are unrelated; each lists some results of a single study. Changes are numbered by the printed parent chain.
# Chain of UniProt O14965 (whole entry, looked up): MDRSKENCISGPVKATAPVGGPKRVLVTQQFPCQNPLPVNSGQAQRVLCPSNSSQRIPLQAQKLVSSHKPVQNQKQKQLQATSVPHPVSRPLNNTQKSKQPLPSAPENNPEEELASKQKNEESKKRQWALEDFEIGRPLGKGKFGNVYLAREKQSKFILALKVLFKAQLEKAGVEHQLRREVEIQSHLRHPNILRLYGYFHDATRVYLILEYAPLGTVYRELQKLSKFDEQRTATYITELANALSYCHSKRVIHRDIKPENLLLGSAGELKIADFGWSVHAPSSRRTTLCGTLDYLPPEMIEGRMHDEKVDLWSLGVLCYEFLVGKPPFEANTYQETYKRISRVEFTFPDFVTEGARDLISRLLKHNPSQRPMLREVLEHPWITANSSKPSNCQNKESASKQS

# Block 1
# Target: Myc proto-oncogene protein, bHLH-zipper, MAX partner unstated (MYC, Homo sapiens, UniProt P01106, residues 368-449)
# Chain of UniProt P01106 (368-449, looked up): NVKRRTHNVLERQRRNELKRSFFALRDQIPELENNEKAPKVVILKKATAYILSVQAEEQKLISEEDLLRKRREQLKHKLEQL
# Method: protein-binding microarray
# Molecule type: double-stranded DNA, one strand shown
# Sample: in vitro
# Concentration: not given
# Notes: k-mer, scored over probes, only values ≥0.25
# Direction: higher = stronger binding
Sequence,E-score
ACGTGGAG,0.426
CGACCTCG,0.256
ACCCACGC,0.411
CGTGCGTA,0.311
CATGCAAC,0.38
CGTGTTAG,0.373
CGCGTACA,0.293
ATGCGTTC,0.329

# Block 2
# Variant: V78L
# Target: ABI1, truncated, D143A, DHFR fusion (Arabidopsis thaliana)
# Method: DHFR PCA, deep sequencing
# Sample: yeast
# Notes: methotrexate growth selection, single substitutions
# Reference: wild-type fitted maximum
# Direction: higher = stronger binding
# Starting sequence: PYL1, truncated, DHFR fusion (Arabidopsis thaliana); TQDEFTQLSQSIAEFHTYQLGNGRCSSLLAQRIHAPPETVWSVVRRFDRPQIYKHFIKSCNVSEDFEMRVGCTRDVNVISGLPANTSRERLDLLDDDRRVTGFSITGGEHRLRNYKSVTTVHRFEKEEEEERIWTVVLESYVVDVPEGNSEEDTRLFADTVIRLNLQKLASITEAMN; partner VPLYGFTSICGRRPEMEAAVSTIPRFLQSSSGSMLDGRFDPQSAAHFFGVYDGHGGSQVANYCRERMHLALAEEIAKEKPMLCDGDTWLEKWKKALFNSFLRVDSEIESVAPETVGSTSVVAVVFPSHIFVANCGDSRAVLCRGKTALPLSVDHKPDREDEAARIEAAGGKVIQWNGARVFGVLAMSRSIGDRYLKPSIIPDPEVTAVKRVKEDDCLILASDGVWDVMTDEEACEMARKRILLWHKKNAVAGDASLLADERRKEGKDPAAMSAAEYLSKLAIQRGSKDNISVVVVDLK
added,relative binding score [%]
(+)-ABA 2500 µM,96.3
(+)-ABA 0.39 µM,72.8
(+)-ABA 0.11 µM,70.5
(+)-ABA 0 µM,65.3
(+)-ABA 1.4 µM,75.2
(+)-ABA 0.032 µM,69.7

# Block 3
# Target: CRIPT, C-terminal peptide
# Method: DHFR complementation, deep sequencing
# Sample: yeast
# Notes: single substitutions, model-inferred values
# Reference: wild type
# Direction: higher = weaker binding
# Starting sequence: ERBIN, PDZ domain 1 (human); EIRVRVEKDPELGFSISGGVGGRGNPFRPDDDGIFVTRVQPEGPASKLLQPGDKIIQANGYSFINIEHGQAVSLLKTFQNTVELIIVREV; partner TKNYKQTSV
Variant,binding free energy change
T81W,-0.0808 kcal/mol
S15Y,0.543 kcal/mol
D30M,0.258 kcal/mol
Q70D,-0.0238 kcal/mol
Q40W,0.578 kcal/mol
G60L,0.192 kcal/mol
G24K,1.22 kcal/mol
P41Q,0.209 kcal/mol

# Single results of other studies
SMILES,target,read-out,action,concentration,reference,quantity,result
Nc1cccc(-c2cc3c(Oc4cccc(O)c4)ncnc3[nH]2)c1,"Aurora kinase A (AURKA, Homo sapiens, UniProt O14965)",enzyme activity,inhibitor,0.5 µM,control,remaining activity,78.2%
